Assay results pooled from the literature.
Target: Calcium/calmodulin-dependent protein kinase type II subunit alpha (CAMK2A, Homo sapiens, UniProt Q9UQM7)

Compound	assay	setting	how to read	quantity	result
C=CC(=O)Nc1cccc(-c2cnc3[nH]cc(C(=O)NC(C)(C)C)c3n2)c1	enzyme activity, inhibitor	0.1 µM	–	inhibition	0%
Cc1[nH]nc2c1N=C(c1ccccc1Cl)c1cnc(N3CCOCC3)cc1N2	enzyme activity, inhibitor	0.5 µM	–	inhibition	7.2%
CNC(=O)C[C@H](Cc1ccc(C#N)cc1)NC(=O)c1cc(-c2ccc(CN[C@H](C)c3ccc(C)cc3)o2)ccc1Cl	enzyme activity, inhibitor	1 µM	–	activity vs control	98%
COc1c(Cl)cccc1Nc1c(-c2ccncc2C#C[C@@]2(C)CCCN2C(=O)/C=C/CN(C)C)[nH]c2c1C(=O)NCC2	cell-free assay, competition with immobilised ligand	3 µM	–	remaining binding	97%
C=CC(=O)N1CCc2ccc(-n3c(=O)ccc4cnc5ccc(-c6cnn(C)c6)cc5c43)cc21	KINOMEscan	1 µM	reference: DMSO control	remaining binding	95%
Nc1ncc(-c2cc(-c3cnn(CC(F)(F)F)c3)ncc2F)nc1C(=O)NC1CNCC(F)C1 (stereo not shown)	enzyme activity	1 µM	reference: DMSO control	remaining activity	97.9%
Cc1cccc(O[C@H]2CCC[C@@H](C(C)CNCc3ccncc3)C2)c1 (relative stereo)	enzyme activity, inhibitor	10 µM	–	inhibition	3%
CC(C)=CC1OC(C)(C)C2C=C3C(=O)C(Cl)=CC(O)C3C3C(O)C4OC4C(=O)C132 (stereo not shown)	cell-free assay, competition with immobilised ligand	10 µM	–	remaining binding	65%
CCN1CCN(Cc2ccc(C(=O)Nc3ccc(C)c(NCc4cnc5[nH]ccc5c4OC)c3)cc2C(F)(F)F)CC1	binding, competition with immobilised ligand	1 µM	–	remaining binding	83%
CCn1cc(C(=O)O)c(=O)c2c(N)c(F)c(NC3CCCCC3)cc21	kinase activity	0.1 µM, added: ATP at Km	–	inhibition	13.3%
NC(=O)[C@@H](O)C[C@H]1CCc2sc3ncnc(O[C@H]4CC[C@H](N5CCOCC5)CC4)c3c21	enzyme activity, inhibitor	10 µM	–	inhibition	58%
Cc1cnc2nc1Nc1cccc(c1)COC/C=C/COCc1cc(ccc1OCCN1CCOCC1)N2	binding	0.1 µM	–	remaining binding	98%
Cc1ccc(-c2c(/C=C(\C#N)C(=O)NC(C)C)n(CCCO)c3ncnc(N)c23)cc1	cell-free assay, competition with immobilised ligand	1 µM	–	remaining binding	87%

Excerpt of the above:
Compound	assay	setting	how to read	quantity	result
Cc1cnc2nc1Nc1cccc(c1)COC/C=C/COCc1cc(ccc1OCCN1CCOCC1)N2	binding	0.1 µM	–	remaining binding	98%
